Assay results collected from several papers.
Each line is one published result; not all experiments were run side by side. Numbers after ± are the reported error. ≈ marks a conversion by molar mass, not a printed value.

CC(=CCC(O)C(C)=Cc1csc(C)n1)CC=CC(C)C(O)C(C)C(=O)C(C)(C)C(O)CC(=O)O (stereo not shown)  half-life (human, plasma; intravenous infusion, 15.0 mg/m2 KOS-1584, 3 h infusion, cycle 1): 25.7 ± 4.09 h
CSCC[C@H](NC(=O)[C@H](CC(N)=O)NC(=O)[C@@H](N)Cc1ccccc1)C(=O)N[C@@H](CCC(N)=O)C(=O)N[C@@H](C)C(=O)N[C@@H](CCC(N)=O)C(=O)N[C@@H](CCCNC(=N)N)C(=O)N[C@@H](CCCNC(=N)N)C(=O)N[C@@H](Cc1ccccc1)C(=O)N[C@@H](Cc1ccc(O)cc1)C(=O)N[C@@H](CCC(=O)O)C(=O)N[C@@H](C)C(=O)N[C@@H](CC(C)C)C(=O)N[C@@H](Cc1c[nH]cn1)C(=O)N[C@@H](CC(=O)O)C(=O)NCC(=O)NCC(=O)NCC(=O)NCC(=O)N[C@@H](CO)C(=O)N[C@@H](C)C(=O)N[C@@H](CCC(=O)O)C(=O)N[C@@H](C)C(=O)N[C@@H](CCC(=O)O)C(=O)N[C@@H](C)C(=O)N[C@@H](CCCCN)C(=O)N[C@@H](C)C(=O)N[C@@H](CCCCN)C(=O)N[C@@H](C)C(=O)N[C@@H](CCC(=O)O)C(=O)N[C@@H](C)C(=O)N[C@@H](CCC(=O)O)C(=O)N[C@@H](C)C(=O)N[C@@H](CCCCN)C(=O)N[C@@H](C)C(=O)N[C@@H](CCCCN)C(=O)O  incorporation into fibrils (EAK peptide fibrils; overnight, 37 °C, PBS, added: EAK to compound ratio 10:1): 23%
Cc1ccc(C(C)C)cc1.Clc1ccc2c(NCCNCc3ccccn3)ccnc2c1.[Cl-].[Cl][Ru+]  distribution coefficient D (shake-flask method; water/n-octanol; pH 4.9): 0.28 ± 0.04
CC(C)[C@@H]1NC(=O)[C@H](Cc2ccccc2)NC(=O)[C@H](Cc2ccc(O)cc2)NC(=O)CCSSC[C@@H](C(=O)N2CCC[C@H]2C(=O)N[C@H](CCCNC(=N)N)C(=O)NCC(N)=O)NC(=O)[C@H](CCC(N)=O)NC1=O  glucose (Wistar rat, blood; intravenous, 1 µg/kg single dose, 72 h): 218 ± 13.9 mg/dL
CN(C)c1ccc(C(=O)NCCCCN2CCN(c3ccccc3O[11CH3])CC2)cc1  uptake ratio (male Sprague Dawley rat, blood; iv, dose not given, added: cyclosporin A pretreatment; reference: cyclosporin A over untreated): 1.16
CSCC[C@H](NC(=O)CNC(=O)[C@H](CC(=O)O)NC(=O)[C@@H](NC(=O)[C@@H](NC(=O)[C@@H](NC(=O)CNC(=O)[C@H](CCC(N)=O)NC(=O)[C@H](CCSC)NC(=O)[C@H](CC(=O)O)NC(=O)[C@H](C)NC(=O)[C@H](C)NC(=O)[C@@H](NC(=O)[C@H](CO)NC(=O)[C@@H](N)CC(C)C)[C@@H](C)O)C(C)C)C(C)C)[C@@H](C)O)C(=O)N[C@@H](C)C(=O)N[C@@H](CO)C(=O)NCC(=O)N[C@@H](CC(C)C)C(=O)N[C@@H](CC(=O)O)C(=O)N[C@@H](CCCCN)C(=O)N[C@@H](CC(=O)O)C(=O)N[C@@H](Cc1ccc(O)cc1)C(=O)N[C@@H](CC(C)C)C(=O)N[C@@H](CCCCN)C(=O)N1CCC[C@H]1C(=O)N[C@@H](CC(=O)O)C(=O)N[C@@H](CC(=O)O)C(=O)O  distribution half-life (human patients, serum; intravenous infusion, 4 mg/kg): 50.4 s
CN[C@](C)(C[18F])C(=O)O  tracer uptake (mouse, muscle; 1 h, tumour-bearing): 1.1 %ID/g
CCNc1cc2[o+]c3cc(NCC)c(C)cc3c(-c3ccccc3C(=O)OCCOCC[18F])c2cc1C  tissue uptake (rat, kidney; 60 min): 7.9 ± 0.99 %ID/g
C[C@@H](O)[C@H](NC(=O)[C@H](CCCCN)NC(=O)[C@H](Cc1c[nH]c2ccccc12)NC(=O)CN)C(=O)N[C@@H](CCCNC(=N)N)C(=O)NC(C)(C)C(=O)N[C@@H](CCCNC(=N)N)C(=O)NC(C)(C)C(=O)N[C@H](C(=O)N[C@@H](CO)C(=O)N[C@@H](Cc1c[nH]cn1)C(=O)N[C@@H](Cc1ccc(O)cc1)C(=O)NCC(=O)O)[C@@H](C)O  lymphocytes (C57BL/6 mouse, blood; intravenous, 50 mg/kg, 10 h; reference: leukocytes): 20 to 40%
CSCC[C@@H]1NC(=O)[C@@H]2CSSC[C@H](NC(=O)[C@H](CO)NC(=O)[C@H](C)N)C(=O)N[C@@H](CCCNC(=N)N)C(=O)N[C@@H]([C@@H](C)O)C(=O)N3CCC[C@H]3C(=O)N[C@@H](CCCCN)C(=O)N[C@@H](CC(=O)O)C(=O)N[C@H]3CSSC[C@H](NC(=O)[C@H](CCCCN)NC(=O)[C@H](CCCNC(=N)N)NC(=O)[C@H](CC(N)=O)NC1=O)C(=O)N[C@@H](CCCCN)C(=O)N[C@H]1CSSC[C@H](NC(=O)[C@@H]4CCCN4C(=O)[C@H](CC(=O)O)NC(=O)[C@H](C)NC3=O)C(=O)N[C@@H](C)C(=O)N[C@@H](CCCCN)C(=O)N[C@@H](CCC(=O)O)C(=O)N[C@@H]([C@@H](C)O)C(=O)NCC(=O)N[C@@H](CSSC[C@@H](C(N)=O)NC(=O)[C@H](CCCNC(=N)N)NC(=O)[C@H](CC(N)=O)NC1=O)C(=O)N1CCC[C@H]1C(=O)N[C@@H](Cc1ccc(O)cc1)C(=O)NCC(=O)N[C@@H](CCCCN)C(=O)N2  Cholesterol (DA rat pristane-induced arthritis, serum; subcutaneous, 0.1 mg/kg every other day, 21 days): 66.8 mg/dL
CCCCCCCCCCCCC(=O)O.O=C1CCCC2C3CCCN4CCCC(CN12)C34 (stereo not shown)  standard Gibbs energy of micellization (electrical conductivity; water; 303.15 K, critical micelle concentration): -35.2 kJ/mol
[18F]c1ccc2cc(-c3cnc(N4CCOCC4)nc3)[nH]c2c1  brain radioactivity (dynamic PET; Sprague-Dawley rats, both sexes, whole brain; intravenous, dose not given, 120 min): 0.5 SUV
CCCCCCCC/C=C\CCCCCCCCOP(O)(O)=S.N  Vz/F (mouse, female, nonirradiated; subcutaneous, single dose): 1.73 L/kg
CC[C@H](C)[C@H](NC(=O)[C@H](CCCCN)NC(=O)[C@H](Cc1ccccc1)NC(=O)[C@H]1CCC[C@@H]1NC(=O)CN)C(=O)N[C@@H](C)CC(=O)N[C@@H](CCCCN)C(=O)N[C@@H](CCCCN)C(=O)N[C@H]1CCC[C@@H]1C(=O)N[C@H](C(=O)N[C@@H](CCCCN)C(=O)N[C@@H](CO)C(=O)N[C@H](CC(N)=O)Cc1ccccc1)C(C)C  helical rigidity (circular dichroism; trifluoroethanol in water; reference: 15% TFE over 100% TFE): 25 ± 3%
CC(C)[C@H](NC(=O)CNC(=O)[C@H](CCC(N)=O)NC(=O)[C@H](C)N)C(=O)O  subjects with any adverse event (human; intravenous infusion, 45 mg/kg/h, 2 h infusion): 50%
C[C@@H]1CC[C@H]2[C@@H](C)CO[C@@H]3O[C@@]4(C)CC[C@@H]1[C@]32OO4  Vd (LC-MS/MS; Sprague-Dawley rat, male, plasma; intravenous, 5 mg/kg): 5.38 ± 0.642 L/kg
COc1ccc(NC(=O)Cn2c(=O)c3ccccc3n(CC(=O)Nc3cc([125I])c(OC)cc3OC)c2=O)cc1  tracer uptake (rat, spleen; intravenous, 5 min): 0.29 %ID/g
CCc1c2c(nc3ccc(OC4OC(C(=O)O)C(O)C(O)C4O)cc13)-c1cc3c(c(=O)n1C2)COC(=O)C3(O)CC (stereo not shown)  Tmax (human patients, plasma; intravenous, 75 mg/m^2 of parent drug): 6.76 h
CC[C@H](C)C(=O)N1CCC(NC(=O)Nc2ccc(OC(F)(F)F)c(F)c2)CC1  AUC(0-48) (healthy volunteers; oral, 8 mg; reference: fasted, increase): 53%
COc1cc(C(=O)NCCOCCOCCOCCNC(=O)c2ccc([18F])nc2)ccc1NC(=O)C1NC(CC(C)(C)C)C(C#N)(c2ccc(Cl)cc2F)C1c1cccc(Cl)c1F (stereo not shown)  tumour-to-tissue ratio (athymic male mice, HepG2 xenograft; 4 h; reference: tumour over liver): 1 ± 0.52
CC[C@@H](C)[C@@H](NC(=O)[C@@H](C)NC(=O)[C@@H](CCCCN)NC(=O)[C@@H](CC(C)C)NC(=O)[C@@H](C)NC(=O)[C@H](NC(=O)[C@@H](Cc1c[nH]cn1)NC(=O)[C@@H](CC(C)C)NC(=O)[C@H](NC(=O)[C@H](NC(=O)[C@@H](CCCCN)NC(=O)[C@@H](CCCCN)NC(=O)[C@@H](C)NC(=O)[C@@H](CO)NC(=O)[C@@H](CCCCN)NC(=O)[C@@H](Cc1ccccc1)NC(=O)[C@H](NC(=O)[C@@H](CCCCN)NC(=O)[C@@H](CC(C)C)NC(=O)[C@@H](Cc1ccccc1)NC(=O)[C@@H](CO)NC(=O)[C@@H](CCCCN)NC(=O)[C@@H](Cc1c[nH]c2ccccc12)NC(=O)[C@@H](CCCCN)NC(C)=O)[C@H](C)O)[C@H](C)O)C(C)C)[C@H](C)O)C(=O)N[C@H](CO)C(=O)N[C@H](CO)C(N)=O  helical content (circular dichroism; aqueous buffer; pH 7.0, 5 °C; reference: reference peptide in TFE): 3%
COc1ccc(C)cc1NC(=O)OC1CC2CCCC(C1)N2Cc1ccc(CC[18F])cc1 (stereo not shown)  tumour to tissue ratio (BALB/c mice, EMT6 tumour; 30 min; reference: tumour over lung): 0.22
C=Cc1cc(O)cc2nc(-c3ccc(O)c([76Br])c3)oc12  tissue uptake (female C57BL/6 mouse, muscle; 3 h, high dose, added: estradiol 20 µg blocking): 0.04 ± 0.02 %ID/g
O=C(O)CCn1c(=O)oc2cc(Cl)c(Cl)cc21  t1/2 (rat, plasma; intravenous, 27 mg/kg): 3 h
CC[C@H](C)[C@H](NC(=O)[C@H](C)NC(=O)CNC(=O)[C@@H](N)CCSC)C(=O)N[C@@H](C)C(=O)N[C@@H](CCCCN)C(=O)N[C@@H](CC(C)C)C(=O)N[C@@H](CCCNC(=N)N)C(=O)N[C@@H](C)C(=O)N[C@@H](CCCCN)C(=O)N[C@@H](Cc1ccccc1)C(=O)NCC(=O)N[C@@H](Cc1c[nH]c2ccccc12)C(=O)N1CCC[C@H]1C(=O)N[C@@H](Cc1ccccc1)C(=O)N[C@H](C(=O)N[C@@H](CCCCN)C(=O)N[C@@H](CCCCN)C(=O)N[C@@H](Cc1ccccc1)C(=O)N[C@@H](Cc1ccc(O)cc1)C(=O)N[C@@H](CCCCN)C(=O)N[C@@H](CCC(N)=O)C(=O)N[C@H](C(=O)N[C@@H](CCSC)C(=O)N[C@@H](CCC(N)=O)C(=O)N[C@@H](Cc1ccccc1)C(=O)N[C@H](C(=O)NCC(=O)N[C@@H](CCC(N)=O)C(=O)NCC(=O)N[C@@H](Cc1c[nH]c2ccccc12)C(=O)N[C@H](C(=O)N[C@H](C(=O)N[C@@H](CC(=O)O)C(=O)N[C@@H](CCC(N)=O)C(=O)N[C@H](C(=O)N[C@@H](CCC(=O)O)C(=O)N[C@@H](CCCCN)C(=O)N[C@@H](Cc1c[nH]c2ccccc12)C(=O)N[C@@H](CC(C)C)C(=O)N[C@@H](CCCCN)C(=O)N[C@@H](CCCNC(=N)N)C(=O)N[C@@H](Cc1c[nH]cn1)C(=O)O)[C@@H](C)CC)[C@@H](C)CC)[C@@H](C)O)[C@@H](C)CC)[C@@H](C)CC)[C@@H](C)CC  Tm (thermal unfolding, far-UV CD; 10 mM sodium phosphate; 5-20 µM, pH 7.2): 48.3 ± 0.2 °C
COc1cc2ccnc(Cc3ccc(O[11CH3])c(OC)c3)c2cc1OC  brain uptake (Sprague-Dawley rat, cortex; i.v., 5 min): 0.144 %ID/g
CN(C)C(CNC(=O)Nc1cc(C(F)(F)F)ccc1N1CCOCC1)c1ccncc1 (stereo not shown)  serum osmolarity (mouse, serum; intraperitoneal, 240 mg/kg single dose): 310 mmol/L
CC[C@H](C)[C@@H]1NC(=O)[C@H](CCC(=O)O)NC(=O)[C@H](C)NC(=O)[C@H](CC(C)C)NC(=O)[C@H](CC(C)C)NC(=O)C2(CCCC=CCCCCCC[C@@](C)(C(=O)N[C@@H](CC(N)=O)C(=O)N[C@@H](CC(C)C)C(=O)N[C@@H](CO)C(=O)O)NC(=O)[C@H](CCCCN)NC1=O)CCCC=CCCC[C@](C)(NC(=O)[C@H](CCCNC(=N)N)NC(=O)[C@H](CC(N)=O)NC(=O)[C@H](CCC(=O)O)NC(=O)[C@@H]1CCCN1C(=O)[C@H](CC(=O)O)NC(=O)c1ccc3c(c1)C(=O)OC31c3ccc(O)cc3Oc3cc(O)ccc31)C(=O)N[C@@H](C)C(=O)N[C@@H](CCCCN)C(=O)N[C@@H](CCCCN)C(=O)N2 (stereo partly shown)  solubility limit: 4 µM (≈ 11 µg/mL)

For quick reference, copied from above:
COc1cc(C(=O)NCCOCCOCCOCCNC(=O)c2ccc([18F])nc2)ccc1NC(=O)C1NC(CC(C)(C)C)C(C#N)(c2ccc(Cl)cc2F)C1c1cccc(Cl)c1F (stereo not shown)  tumour-to-tissue ratio (athymic male mice, HepG2 xenograft; 4 h; reference: tumour over liver): 1 ± 0.52
CC[C@@H](C)[C@@H](NC(=O)[C@@H](C)NC(=O)[C@@H](CCCCN)NC(=O)[C@@H](CC(C)C)NC(=O)[C@@H](C)NC(=O)[C@H](NC(=O)[C@@H](Cc1c[nH]cn1)NC(=O)[C@@H](CC(C)C)NC(=O)[C@H](NC(=O)[C@H](NC(=O)[C@@H](CCCCN)NC(=O)[C@@H](CCCCN)NC(=O)[C@@H](C)NC(=O)[C@@H](CO)NC(=O)[C@@H](CCCCN)NC(=O)[C@@H](Cc1ccccc1)NC(=O)[C@H](NC(=O)[C@@H](CCCCN)NC(=O)[C@@H](CC(C)C)NC(=O)[C@@H](Cc1ccccc1)NC(=O)[C@@H](CO)NC(=O)[C@@H](CCCCN)NC(=O)[C@@H](Cc1c[nH]c2ccccc12)NC(=O)[C@@H](CCCCN)NC(C)=O)[C@H](C)O)[C@H](C)O)C(C)C)[C@H](C)O)C(=O)N[C@H](CO)C(=O)N[C@H](CO)C(N)=O  helical content (circular dichroism; aqueous buffer; pH 7.0, 5 °C; reference: reference peptide in TFE): 3%
